Measured values from different studies.
Every numbered part comes from another study and shows a few of its results, in no order.

Series 1
Target: RNA binding protein fox-1 homolog 2, RRM domain, GST-SBP tag (RBFOX2, Homo sapiens, UniProt O43251-10, residues 100-194)
Technique: RNA Bind-n-Seq
Form: RNA
Medium: in vitro
Tested at: 365 nM
Notes: natural RNA segment, single round, ends assumed
Baseline: no-protein control
Direction: higher = stronger binding
Construct (chain): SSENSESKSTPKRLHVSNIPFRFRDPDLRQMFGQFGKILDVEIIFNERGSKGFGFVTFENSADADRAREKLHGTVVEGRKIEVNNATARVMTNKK
Sequence | RBNS enrichment (R)
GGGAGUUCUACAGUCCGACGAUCCGAGCGAGGAGCUGAUGAGUCCCUUGCAGCCUCCAGUCUGACCCAGAGUGGCAGGUAUCCUGGCAUGGCCCAGCCUGCCCUACCCCGAGGAGACUUCCAGGAAGACACGUUGGAAUUCUCGGGUGCCAA | 0.359
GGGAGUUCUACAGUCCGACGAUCAUGGGGAGGGAAGAGGAGGAGAGGGGAGGGGACCUGCCCCCUCCUCAGGCAUCUGGGAGGGCCCUGCCCCCAUGGGCUUUACCCUUCCCUGCGGGCUCUCUCCCCGACACUGGAAUUCUCGGGUGCCAA | 0.233
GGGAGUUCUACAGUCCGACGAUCGGCCUUGAGGGAAUAAGGGGCCCCUGGCUCUGGGGACCCACCCGGUGGGACUUAGUGGUGAGACACUGGUUGAUCUCUUAGAAGCCCUGGGACACGCCCUCCCUCAUUCAUGGAAUUCUCGGGUGCCAA | 0.418
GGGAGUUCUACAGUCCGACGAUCUCUUCUUUUUCUAGCAUGCUUUACAUAGGAGAGAAUAAAGGGCUAUUUAAUAAGCAAUCCGGAUCUCAGAGAACAUAGUAAUACUGUCUAGUUUAAAGCCUGCAGUAAAGUGGAAUUCUCGGGUGCCAA | 1.94
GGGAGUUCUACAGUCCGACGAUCUGAAGUGGGGCCACAGAUUUAGAAUCCAUUUAAGUUUCCCUGUUGUGUGUCUGUGUUGACCCUGGGACAAGUGUGAGACAGGAAGAGUGUGGGGAGUCUGGGCUCGGUAGUGGAAUUCUCGGGUGCCAA | 1.56
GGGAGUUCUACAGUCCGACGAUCUCCUUAACUUCCUUCUGCCGACCUCCACCUCUGGUGGUUCCUGCCCUGCCUGGACACAGGGAGGCCCAGGGACUGACUCCUGGCCUGAGUGAUGCCCUCCUGGGCCCUUAUGGAAUUCUCGGGUGCCAA | 0.392
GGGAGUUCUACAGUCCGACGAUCCUUUUUGUUAGCUGUGUACAGAAUGUGUAUCCUAUCUCCUCCCCUCCUUGGCUAAUCAUUGGCAGGGGUCUUCCUGGGGAAAAGCUUAAAGAGCAGCUAGGGAAGGAGAGUGGAAUUCUCGGGUGCCAA | 1.3
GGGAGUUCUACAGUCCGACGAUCAACUGCAUUGUAUCUAAAGCCUUAGAACUAGUCAGGUGCUCCUCCCACCCAAUACCAUUUCUUACCCUCUAAUCCUACCUGAUCUUUAACAAAGCAUUAAUAAUUCUAAGUGGAAUUCUCGGGUGCCAA | 0.838

Series 2
Target: Interferon regulatory factor 3, full length, phosphomimetic (IRF3, Homo sapiens, UniProt Q14653, residues 1-427, S386D/S396D/S398D/S402D/T404D/S405D)
Sequence of UniProt Q14653 (whole entry, unmodified, looked up): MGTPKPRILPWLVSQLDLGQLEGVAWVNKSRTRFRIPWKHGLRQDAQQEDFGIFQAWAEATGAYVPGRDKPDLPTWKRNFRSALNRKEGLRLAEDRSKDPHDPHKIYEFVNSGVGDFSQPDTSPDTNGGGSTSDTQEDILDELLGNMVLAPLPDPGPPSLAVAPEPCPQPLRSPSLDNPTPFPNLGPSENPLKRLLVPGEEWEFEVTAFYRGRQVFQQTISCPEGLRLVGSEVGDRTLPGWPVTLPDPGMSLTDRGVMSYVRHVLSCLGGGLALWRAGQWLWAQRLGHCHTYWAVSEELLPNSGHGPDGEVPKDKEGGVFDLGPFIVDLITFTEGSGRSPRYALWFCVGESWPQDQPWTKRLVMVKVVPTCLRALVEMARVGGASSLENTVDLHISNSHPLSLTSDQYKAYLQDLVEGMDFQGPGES
Technique: protein-binding microarray
Form: double-stranded DNA, one strand shown
Medium: in vitro
Tested at: 2540 nM top
Notes: 60-bp whole probe
Added: salmon DNA 0.4 mg/ml
Baseline: random background probes
Direction: higher = stronger binding
Shared flanks, not repeated: GCCTAGCAC … GTCTTGATTCGCTTGACGCTGCTG
Sequence | fitted relative affinity [z-score]
TTAGATCTCGGACTGGGTTAGTGCTAG | -0.361
TCACTTTTAATTTTTAAACTGTGCTAG | 2.43
ATAGGTATCGGGTATCGGTTAGTGCTA | 2.16
GTAGGTCTCGGTTTCGGTTAGTGCTAG | 5.2
GACGATTTCAGACTGGACACGTGCTAG | 0.981
AGTCTTCTCCTCTAGGTTCTCGTGCTA | 0.249
GACGGACTGGTTATCCTGACGTGCTAG | -0.0623
TTTGGTTTCGACACTGGGTTAGTGCTA | 3.34
TCAGATCTCAGTCTCGATTAGTGCTAG | 1.31
GACGGTATCCTTATCATGACGTGCTAG | 4.87
TCACGGCTCGTTATCCTACTGTGCTAG | 0.184
GACGCTTTCGGGTATCGGGACGTGCTA | 2.01
GACGGTATCAACACTGGGGACGTGCTA | 0.274
CTGGTGCTCATCTGTCATGTTGTGCTA | 0.175
GACGGTATCGACATTCGGGACGTGCTA | 0.798
TTAGGTTTCGTTATCCTTTAGTGCTAG | 6.64
TCAGCTCCCTTTCTCTCTGTGTGCTAG | 2.92
TTAGAACTGAGTTTCGATTAGTGCTAG | 2.62
GAAGATATCGGGTATCGAGACGTGCTA | -0.0587

Series 3
Target: Sal-like protein 4, full length isoform A (SALL4, Homo sapiens, UniProt Q9UJQ4, residues 1-1053)
Sequence of UniProt Q9UJQ4 (whole entry, looked up): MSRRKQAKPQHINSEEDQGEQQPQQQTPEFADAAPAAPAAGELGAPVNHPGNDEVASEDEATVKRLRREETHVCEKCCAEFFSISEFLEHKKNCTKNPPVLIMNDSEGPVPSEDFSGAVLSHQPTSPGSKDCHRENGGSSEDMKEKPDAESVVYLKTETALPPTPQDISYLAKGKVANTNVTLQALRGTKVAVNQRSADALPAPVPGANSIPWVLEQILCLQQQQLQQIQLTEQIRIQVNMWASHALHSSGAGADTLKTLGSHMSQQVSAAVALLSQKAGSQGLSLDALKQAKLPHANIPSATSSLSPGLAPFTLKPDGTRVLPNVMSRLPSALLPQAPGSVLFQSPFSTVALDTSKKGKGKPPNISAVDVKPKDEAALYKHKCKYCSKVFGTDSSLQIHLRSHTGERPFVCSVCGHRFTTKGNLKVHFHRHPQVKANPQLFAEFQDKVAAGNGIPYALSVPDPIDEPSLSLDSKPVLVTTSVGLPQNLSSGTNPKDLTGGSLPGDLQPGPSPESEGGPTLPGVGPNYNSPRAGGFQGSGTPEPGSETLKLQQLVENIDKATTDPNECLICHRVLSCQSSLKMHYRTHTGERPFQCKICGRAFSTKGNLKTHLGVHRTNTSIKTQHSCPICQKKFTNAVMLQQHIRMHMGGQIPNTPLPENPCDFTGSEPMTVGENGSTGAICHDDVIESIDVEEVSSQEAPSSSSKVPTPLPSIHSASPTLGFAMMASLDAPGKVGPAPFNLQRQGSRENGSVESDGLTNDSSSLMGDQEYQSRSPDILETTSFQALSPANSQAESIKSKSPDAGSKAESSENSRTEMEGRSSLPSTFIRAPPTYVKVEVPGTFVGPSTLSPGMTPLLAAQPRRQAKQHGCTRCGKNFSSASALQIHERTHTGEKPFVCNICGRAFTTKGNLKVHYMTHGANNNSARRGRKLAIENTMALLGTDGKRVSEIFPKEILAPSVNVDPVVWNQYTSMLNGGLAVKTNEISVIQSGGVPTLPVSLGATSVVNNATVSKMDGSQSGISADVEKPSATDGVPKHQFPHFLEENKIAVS
Technique: universal PBM
Form: double-stranded DNA, one strand shown
Medium: in vitro
Tested at: 600 nM
Notes: 8-mer, flanks averaged, mean of replicates
Direction: higher = stronger binding
Sequence | E-score
AGAGCGCG | -0.246
GGCCCGAC | -0.376
CCACTACA | -0.0854
CCTGAAAC | 0.0166
ACTGTCGC | -0.161
CAATTTAA | 0.312
AGAGTGAT | 0.0129
GCACGTGA | -0.0829
AGGAGCAG | -0.253
CCAGGACC | -0.269
GCAACTCC | -0.195
CAGGAATG | -0.0627
TAGCTCAA | 0.0254
ACCGGAGC | -0.245
AAGAGTCT | 0.0142
CTTCCAAG | -0.0519
CTGGACTC | -0.0583
AGTGTGCC | -0.123
AGCAGTGA | -0.0146
CAGAGCCG | -0.27
TAAGGTGA | 0.0432
ATTGTGCG | 0.0426
GATACCTA | 0.184
CGCGCATC | -0.0632
CATACTAG | 0.162

Series 4
Target: Ras GTPase-activating protein-binding protein 1, C-terminal RGG region (G3BP1, Homo sapiens, UniProt Q13283)
Sequence of UniProt Q13283 (whole entry, looked up): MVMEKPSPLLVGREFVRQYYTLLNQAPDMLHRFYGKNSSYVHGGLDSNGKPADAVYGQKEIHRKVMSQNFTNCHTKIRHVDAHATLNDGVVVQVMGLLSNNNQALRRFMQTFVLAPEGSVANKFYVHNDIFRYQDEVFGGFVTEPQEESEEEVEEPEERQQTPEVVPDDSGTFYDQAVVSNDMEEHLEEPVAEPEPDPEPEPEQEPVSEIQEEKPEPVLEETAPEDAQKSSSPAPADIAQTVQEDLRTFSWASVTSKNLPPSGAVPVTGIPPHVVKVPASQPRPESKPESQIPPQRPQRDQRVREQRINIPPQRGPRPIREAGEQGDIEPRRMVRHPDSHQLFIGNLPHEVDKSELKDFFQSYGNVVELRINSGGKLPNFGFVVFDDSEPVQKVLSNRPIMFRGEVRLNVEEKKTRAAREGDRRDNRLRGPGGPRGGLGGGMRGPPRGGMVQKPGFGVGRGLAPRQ
Technique: RNA Bind-n-Seq
Form: RNA
Medium: in vitro
Tested at: 1 µM
Notes: whole 134-nt RNA, ends assumed
Added: 150 mM KCl
Baseline: input library
Direction: higher = stronger binding
Sequence | log2 enrichment
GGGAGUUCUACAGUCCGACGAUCUGGCCAAUAGCAUCCUUUUCCAGUCUUCCGGUCUGACAAAUGGAAUAAUAGAAGAAAAGGACAUACAUGAAGAAUUGCCAAAACGGAAAGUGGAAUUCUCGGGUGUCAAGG | -1.89
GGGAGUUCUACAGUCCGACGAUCGCAGGAAGUAAAAACAAAUGGAAAUGCAAAGGAUAGUGGCAGGGGUGGGGGUUGCUAAGGAAAGGGUGGGAUGGGAGUGGGUAAAGAGUUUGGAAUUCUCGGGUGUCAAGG | 1.61
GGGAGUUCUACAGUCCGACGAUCAAGUCCUGUGCUACACAUCGUAUGUACCGAAUCGGGGUUUGGGGUUUGGGGUUUGGGAAAGUAUUAUGUUACGCCGUUCGGAUCUGCACUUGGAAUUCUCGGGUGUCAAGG | 1.59
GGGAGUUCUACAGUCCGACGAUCGCAGGAAGUAAAAACAAAUGGAAAUGCUUCGGAUAGUGGCAGGGGUGGGGGUUGCUAAGGAAAGGGUGGGAUGGGAGUGGGUAAAUAGUUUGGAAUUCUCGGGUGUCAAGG | 0.417
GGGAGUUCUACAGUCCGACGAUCCUGUGCUACACAUCGUAUGUACCGAAUCGGUUUUUUUGGGGUUUUUUUGGGGUUUUUUUGGGAAAGUAUUAUGUUACGCCGUUCGGAUCUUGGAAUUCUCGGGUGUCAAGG | -0.93
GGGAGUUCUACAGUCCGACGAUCUACCAAUUGGCCUUUAUUGACUGUAUCCAAAGGAUUUUUUGAAGGCACCAUUGCCAGCAAAGGUAAGUACCUAUUUCUCCCAUAGCACUUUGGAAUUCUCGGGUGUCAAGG | -1.37
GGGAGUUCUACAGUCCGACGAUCUUCCGCCUCUUUCCGGAGUACAAGAACAACAAACUUUUCCUGACCGGGGAGAGCUAUGCUGGCAUCUACAUCCCCACCCUGGCCGUGCUGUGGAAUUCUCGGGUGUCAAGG | 0.0901
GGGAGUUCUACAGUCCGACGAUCGUCCUGUGCUACACAUCGUAUGUACCGAAUCGGGGUGGGGAAAGGGGUUUUUUUGGGGAAAGUAUUAUGUUACGCCGUUCGGAUCUGCACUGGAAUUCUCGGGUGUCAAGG | 2.32
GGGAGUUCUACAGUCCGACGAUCUCAAGUCCUGUGCUACACAUCGUAUGUACCGAAUCGGGCCGGCCGGGGCCGGGGAAAGUAUUAUGUUACGCCGUUCGGAUCUGCACUUCCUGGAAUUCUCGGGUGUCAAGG | -1.34
